Measured values from different studies.
A part holds a random share of what one study measured. Changes are numbered by the printed parent chain.
Sequence of UniProt Q16539 (whole entry, looked up): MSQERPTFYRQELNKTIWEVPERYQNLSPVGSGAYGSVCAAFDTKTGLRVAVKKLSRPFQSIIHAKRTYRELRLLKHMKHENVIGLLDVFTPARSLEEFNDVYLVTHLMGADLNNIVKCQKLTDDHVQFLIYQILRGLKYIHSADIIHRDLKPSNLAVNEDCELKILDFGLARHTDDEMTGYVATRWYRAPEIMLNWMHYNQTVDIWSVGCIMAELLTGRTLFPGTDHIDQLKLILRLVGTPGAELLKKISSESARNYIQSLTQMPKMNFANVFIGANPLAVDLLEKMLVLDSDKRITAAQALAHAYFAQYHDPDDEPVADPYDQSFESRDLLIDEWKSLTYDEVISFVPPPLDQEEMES
Sequence of UniProt Q13464 (whole entry, looked up): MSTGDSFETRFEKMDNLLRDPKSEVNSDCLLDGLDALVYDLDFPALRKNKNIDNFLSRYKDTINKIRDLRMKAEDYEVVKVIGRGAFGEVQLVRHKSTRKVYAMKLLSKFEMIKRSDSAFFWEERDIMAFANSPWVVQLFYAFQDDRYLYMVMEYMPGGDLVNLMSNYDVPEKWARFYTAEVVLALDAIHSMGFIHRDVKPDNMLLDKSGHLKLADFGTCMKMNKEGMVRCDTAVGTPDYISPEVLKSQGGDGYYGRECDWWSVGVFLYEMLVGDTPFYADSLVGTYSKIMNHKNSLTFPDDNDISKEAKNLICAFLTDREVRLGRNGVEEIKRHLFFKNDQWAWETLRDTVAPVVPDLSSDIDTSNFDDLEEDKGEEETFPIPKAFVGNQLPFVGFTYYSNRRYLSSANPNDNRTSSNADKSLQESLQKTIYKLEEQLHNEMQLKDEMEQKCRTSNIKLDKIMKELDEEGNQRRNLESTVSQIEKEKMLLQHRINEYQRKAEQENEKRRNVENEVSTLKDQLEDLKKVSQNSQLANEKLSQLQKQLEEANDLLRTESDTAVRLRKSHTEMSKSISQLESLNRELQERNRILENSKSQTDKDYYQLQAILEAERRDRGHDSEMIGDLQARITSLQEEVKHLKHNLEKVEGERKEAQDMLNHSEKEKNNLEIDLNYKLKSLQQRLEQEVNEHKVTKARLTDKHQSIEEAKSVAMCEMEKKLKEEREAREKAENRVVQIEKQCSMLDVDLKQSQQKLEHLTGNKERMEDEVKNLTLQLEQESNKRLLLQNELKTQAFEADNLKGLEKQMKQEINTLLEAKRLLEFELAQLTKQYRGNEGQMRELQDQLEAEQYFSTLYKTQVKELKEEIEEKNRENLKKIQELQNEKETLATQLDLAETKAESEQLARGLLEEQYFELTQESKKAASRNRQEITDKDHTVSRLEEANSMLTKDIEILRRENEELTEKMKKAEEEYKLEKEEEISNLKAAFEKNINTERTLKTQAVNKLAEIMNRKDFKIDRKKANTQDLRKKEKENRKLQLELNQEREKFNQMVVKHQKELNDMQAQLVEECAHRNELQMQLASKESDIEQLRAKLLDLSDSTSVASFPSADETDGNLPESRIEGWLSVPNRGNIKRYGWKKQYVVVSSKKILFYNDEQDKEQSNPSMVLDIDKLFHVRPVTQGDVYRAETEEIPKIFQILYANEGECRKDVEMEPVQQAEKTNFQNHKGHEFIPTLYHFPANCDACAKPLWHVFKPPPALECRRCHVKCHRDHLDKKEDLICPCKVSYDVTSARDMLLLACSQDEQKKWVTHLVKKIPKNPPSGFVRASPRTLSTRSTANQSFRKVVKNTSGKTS
Sequence of UniProt Q9H4B4 (whole entry, looked up): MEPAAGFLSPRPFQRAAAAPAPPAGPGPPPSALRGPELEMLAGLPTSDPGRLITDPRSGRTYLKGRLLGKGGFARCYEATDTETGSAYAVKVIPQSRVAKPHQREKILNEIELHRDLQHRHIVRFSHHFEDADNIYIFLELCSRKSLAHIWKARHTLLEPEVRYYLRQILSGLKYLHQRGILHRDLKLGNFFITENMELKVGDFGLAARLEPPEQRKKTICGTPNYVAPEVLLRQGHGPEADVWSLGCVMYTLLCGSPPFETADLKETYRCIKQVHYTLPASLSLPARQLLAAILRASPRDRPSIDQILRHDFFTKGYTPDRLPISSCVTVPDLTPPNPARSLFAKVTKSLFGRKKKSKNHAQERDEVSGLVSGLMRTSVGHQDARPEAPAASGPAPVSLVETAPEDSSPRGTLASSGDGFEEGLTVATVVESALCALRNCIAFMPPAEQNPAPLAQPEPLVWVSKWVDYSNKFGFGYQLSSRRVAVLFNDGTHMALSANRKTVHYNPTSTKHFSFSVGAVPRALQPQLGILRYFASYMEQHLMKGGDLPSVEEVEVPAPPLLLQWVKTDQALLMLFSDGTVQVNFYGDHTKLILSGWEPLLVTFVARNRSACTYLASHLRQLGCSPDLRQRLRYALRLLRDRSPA
Sequence of UniProt P51956 (whole entry, looked up): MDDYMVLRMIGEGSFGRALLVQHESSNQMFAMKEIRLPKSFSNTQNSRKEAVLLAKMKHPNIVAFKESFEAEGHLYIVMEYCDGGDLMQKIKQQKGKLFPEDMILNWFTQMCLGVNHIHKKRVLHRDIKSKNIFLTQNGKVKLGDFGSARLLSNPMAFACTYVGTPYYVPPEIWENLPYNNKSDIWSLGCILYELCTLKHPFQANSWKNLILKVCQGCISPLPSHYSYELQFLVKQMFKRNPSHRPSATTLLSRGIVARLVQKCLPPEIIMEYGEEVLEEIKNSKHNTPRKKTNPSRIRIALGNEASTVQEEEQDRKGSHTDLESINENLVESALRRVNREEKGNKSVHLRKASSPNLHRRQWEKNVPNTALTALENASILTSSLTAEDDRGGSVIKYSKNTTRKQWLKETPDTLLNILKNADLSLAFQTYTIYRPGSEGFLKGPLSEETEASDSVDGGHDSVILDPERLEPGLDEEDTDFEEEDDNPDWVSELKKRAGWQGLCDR
Sequence of UniProt O75914 (whole entry, looked up): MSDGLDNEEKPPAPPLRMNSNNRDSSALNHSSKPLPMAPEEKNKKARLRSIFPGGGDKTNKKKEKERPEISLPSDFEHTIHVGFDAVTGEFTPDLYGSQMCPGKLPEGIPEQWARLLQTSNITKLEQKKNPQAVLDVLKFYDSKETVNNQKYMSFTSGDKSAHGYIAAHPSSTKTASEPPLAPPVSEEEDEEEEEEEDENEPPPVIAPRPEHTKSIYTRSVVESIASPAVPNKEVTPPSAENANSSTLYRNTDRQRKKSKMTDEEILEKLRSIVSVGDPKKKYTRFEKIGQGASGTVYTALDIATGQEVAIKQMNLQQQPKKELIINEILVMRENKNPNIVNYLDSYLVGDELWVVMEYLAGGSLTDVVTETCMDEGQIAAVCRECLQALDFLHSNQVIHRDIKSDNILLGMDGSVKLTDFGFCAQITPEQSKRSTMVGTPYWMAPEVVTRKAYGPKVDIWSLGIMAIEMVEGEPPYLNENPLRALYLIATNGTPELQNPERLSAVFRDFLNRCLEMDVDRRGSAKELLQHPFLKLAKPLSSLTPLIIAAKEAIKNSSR

Set 1 — effect on: enzyme activity; action: inhibitor; tested at: 0.5 µM; reference: control
SMILES: COc1ccc2c(c[n+](C)c3c4cc5c(cc4ccc23)OCO5)c1OC
| target | remaining activity [%] |
| --- | --- |
| PLK3 (Homo sapiens, UniProt Q9H4B4) | 100 |
| PAK3 (Homo sapiens, UniProt O75914) | 96.6 |
| MAP2K1 (Homo sapiens, UniProt Q02750) | 97.8 |
| ROCK1 (Homo sapiens, UniProt Q13464) | 99.4 |
| NEK3 (Homo sapiens, UniProt P51956) | 95.2 |
| MAPK14 (Homo sapiens, UniProt Q16539) | 94.1 |

Set 2 — target: CCNE2, cyclin fold, Cln2 fusion (human); method: yeast growth competition, sequencing; matrix: yeast; setting: strong parent motif; reference: not given; reading: higher = stronger binding
Starting sequence: viral docking peptide; TSVRRALFTGGSD; partner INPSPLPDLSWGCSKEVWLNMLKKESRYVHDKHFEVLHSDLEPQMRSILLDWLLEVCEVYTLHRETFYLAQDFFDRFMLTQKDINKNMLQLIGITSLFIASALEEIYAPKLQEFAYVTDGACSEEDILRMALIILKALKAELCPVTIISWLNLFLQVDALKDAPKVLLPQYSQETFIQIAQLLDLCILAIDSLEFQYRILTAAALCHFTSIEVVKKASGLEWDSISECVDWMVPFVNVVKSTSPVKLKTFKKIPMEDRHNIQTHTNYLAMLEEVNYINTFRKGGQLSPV
| Change | normalised enrichment score |
| --- | --- |
| TSVRRALFTGGKD [S12K] | 2.84 |
| TSVRRALATGGSD [F8A] | 0.364 |
| TSGRRALFTGGSD [V3G] | 0.184 |
| TWVRRALFTGGSD [S2W] | 1.02 |
| TSVRAALFTGGSD [R5A] | 0.33 |

Set 3 — method: RNAcompete; form: RNA; matrix: in vitro; tested at: 20 nM; setting: 7-mer, probes averaged, single round; reference: mean of 7-mers; reading: higher = stronger binding
Target: PABPC1L2, full length, GST fusion (mouse, UniProt A0ABA7IW68)
Target sequence (chain): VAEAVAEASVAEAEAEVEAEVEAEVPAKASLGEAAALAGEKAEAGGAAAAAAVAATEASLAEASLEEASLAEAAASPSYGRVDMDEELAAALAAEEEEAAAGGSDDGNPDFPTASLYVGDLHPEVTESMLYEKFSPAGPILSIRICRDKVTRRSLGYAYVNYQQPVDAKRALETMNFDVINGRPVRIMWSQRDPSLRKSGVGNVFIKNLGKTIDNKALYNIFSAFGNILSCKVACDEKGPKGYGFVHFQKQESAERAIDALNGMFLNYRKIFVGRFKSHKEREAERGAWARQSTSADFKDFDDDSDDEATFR
| Sequence | 7-mer Z-score |
| --- | --- |
| GGGUGUC | -0.0101 |
| CAGGAGG | 0.365 |
| AGAGUAA | 0.017 |
| AGAACUC | -0.18 |
| GGGUCUG | -0.0301 |
| GCUUGAU | -0.171 |
| UGAAGCA | 0.155 |
| GCAUUCU | -0.329 |

Set 4 — target: vanadate, free oxyanion; method: microfluidic competitive inhibition; matrix: in vitro, cell-free expressed; tested at: not given; reading: lower = stronger binding
Setting: derived from inhibition constants, unchanged parent 676 nM
Starting sequence: PafA, mature enzyme, eGFP fusion (Elizabethkingia meningoseptica, UniProt Q9KJX5); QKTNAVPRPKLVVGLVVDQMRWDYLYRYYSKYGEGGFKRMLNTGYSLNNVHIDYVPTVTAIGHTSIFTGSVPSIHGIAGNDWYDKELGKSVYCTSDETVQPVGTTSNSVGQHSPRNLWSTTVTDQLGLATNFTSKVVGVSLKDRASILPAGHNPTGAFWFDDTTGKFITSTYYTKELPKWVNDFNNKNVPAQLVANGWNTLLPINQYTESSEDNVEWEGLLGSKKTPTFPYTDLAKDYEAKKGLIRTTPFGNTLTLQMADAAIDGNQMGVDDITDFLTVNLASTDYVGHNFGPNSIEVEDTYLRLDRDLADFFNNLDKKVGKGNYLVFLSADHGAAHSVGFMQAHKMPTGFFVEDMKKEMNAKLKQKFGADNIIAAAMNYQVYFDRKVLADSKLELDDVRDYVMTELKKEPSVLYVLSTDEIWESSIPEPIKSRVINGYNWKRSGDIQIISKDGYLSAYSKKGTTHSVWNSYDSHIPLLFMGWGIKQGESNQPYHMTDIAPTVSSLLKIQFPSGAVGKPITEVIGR
| Change | oxyanion analog dissociation constant [µM] |
| --- | --- |
| K462G | 0.774 |
| L316V | 0.798 |
| S113G | 0.607 |
| C93G | 2.23 |
| N48V | 2.61 |
| N49V | 0.577 |
| L326V | 0.54 |
| C93V | 0.575 |
| I499V | 0.695 |
| K358G | 0.96 |
| T255V | 1.61 |
| H495V | 0.524 |
| A157G | 0.548 |
| I61V | 0.805 |
| K322G | 0.683 |
| T284V | 1 |
| E299V | 0.666 |
| Q1G | 0.612 |
| K179G | 0.703 |
| P154G | 0.787 |
| K319V | 0.778 |
| P348G | 0.751 |
| G127V | 0.692 |
| T502G | 2.97 |
| P411G | 0.867 |

Set 5 — method: universal PBM; form: double-stranded DNA, one strand shown; matrix: in vitro; tested at: not given; reading: higher = stronger binding
Target: Sal-like protein 4, full length isoform B (SALL4, Homo sapiens, UniProt Q9UJQ4-2, residues 1-616)
Setting: 8-mer, flanks averaged, mean of replicates
| Sequence | E-score |
| --- | --- |
| AGGACCAG | -0.24 |
| AGAAGCCG | -0.227 |
| CACCATTC | 0.026 |
| TCGAACAA | 0.102 |
| ACACTCCG | -0.164 |
| AGGATCTC | -0.129 |
| TCCGTACA | 0.0425 |
| CACCGCGC | -0.331 |

Repeated from above (set 4):
| Change | oxyanion analog dissociation constant [µM] |
| --- | --- |
| S113G | 0.607 |
| P154G | 0.787 |
| K179G | 0.703 |
| A157G | 0.548 |
| N48V | 2.61 |
| T255V | 1.61 |
